Assay results of several laboratories.
Every numbered part comes from another study and shows a few of its results, in no order.

Series 1
Target: Histone acetyltransferase KAT6A, winged helix 1, GST fusion (KAT6A, Homo sapiens, UniProt Q92794, residues 1-85)
Technique: protein binding microarray
Form: double-stranded DNA, one strand shown
Medium: in vitro
Tested at: not given
Notes: 8-mer, flanks averaged, mean of 2 arrays, mostly near background
Relative to: not given
Direction: higher = stronger binding
Residues (chain): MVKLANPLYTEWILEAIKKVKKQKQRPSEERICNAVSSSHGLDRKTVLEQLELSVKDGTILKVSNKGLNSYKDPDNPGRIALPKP
| Strand | E-score |
| --- | --- |
| AGCAACAT | -0.11 |
| ATTCCAGA | -0.013 |
| AGACTCTA | -0.134 |
| GCCAAGCA | -0.13 |
| CTTATGAA | -0.0245 |
| AAACCCGG | 0.309 |

Series 2
Target: RNA binding protein fox-1 homolog 2, RRM domain, GST-SBP tag (RBFOX2, Homo sapiens, UniProt O43251-10, residues 100-194)
Technique: RNA Bind-n-Seq
Form: RNA
Medium: in vitro
Tested at: 365 nM
Notes: natural RNA segment, single round, ends assumed
Relative to: no-protein control
Direction: higher = stronger binding
| Strand | RBNS enrichment (R) |
| --- | --- |
| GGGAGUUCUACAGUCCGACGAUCCGUGCCUGCACACCGUUCUCUCCACCCUGCCUCCUUCCCACAGCAGAAGCAGGGCUCCACCCAGGCCUUCCCUUGGAGUCGGUGCAUCCAUGGGCUGCUAGACUCUUGCGUGGAAUUCUCGGGUGCCAA | 0.396 |
| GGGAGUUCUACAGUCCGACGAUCAUUGUACCAAAACAAGAACCACUUAAACAAUGCCUAGGGAAUGAUAAGGAGGAGGAAAAUCCCAGGUCCACAGCAAAGGACACCUAAGAGUGGGAGGCUGCAGCAGUAAGUGGAAUUCUCGGGUGCCAA | 0.695 |
| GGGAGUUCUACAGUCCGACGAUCUCUUGAGGUGACUUAUUUUGCAUAGAGGAUAUGGAUAGACCAACAGUAAGGGUUGUGGGUUAUACCGGCAUAGAGAAAAGAAGAAAACUAGAAUUGAAACAACUGUGUCUUGGAAUUCUCGGGUGCCAA | 1.25 |
| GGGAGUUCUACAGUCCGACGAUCUGGUCUUCUCUGCAGAGAACUGAGGCUAAACUCUGUCCCUACUUCUGGUUUUGCCCUGUCAUGUCGUAACGAGGUGGGCCUUUUGAGGCCAUUUUAGUUUGAGUUCGAGCUGGAAUUCUCGGGUGCCAA | 0.443 |
| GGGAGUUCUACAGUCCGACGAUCCCACCUUCCAAGCCAGUUGCAGAGCCCCUGCUAAGGACCGAGCCUGCUCACUCAUCUCAGCUCCAGCCGCACAGCCACAGCCUCAGGUCUGUUUAGCUUGGGAAGCCAAAUGGAAUUCUCGGGUGCCAA | 0.418 |

Series 3
Target: Interferon regulatory factor 7, full length, phosphomimetic (IRF7, Homo sapiens, UniProt Q92985, residues 1-503, S471D/S472D/S475D/S476D/S477D/S483D/S484D/S487D)
Chain of UniProt Q92985 (whole entry, unmodified, looked up): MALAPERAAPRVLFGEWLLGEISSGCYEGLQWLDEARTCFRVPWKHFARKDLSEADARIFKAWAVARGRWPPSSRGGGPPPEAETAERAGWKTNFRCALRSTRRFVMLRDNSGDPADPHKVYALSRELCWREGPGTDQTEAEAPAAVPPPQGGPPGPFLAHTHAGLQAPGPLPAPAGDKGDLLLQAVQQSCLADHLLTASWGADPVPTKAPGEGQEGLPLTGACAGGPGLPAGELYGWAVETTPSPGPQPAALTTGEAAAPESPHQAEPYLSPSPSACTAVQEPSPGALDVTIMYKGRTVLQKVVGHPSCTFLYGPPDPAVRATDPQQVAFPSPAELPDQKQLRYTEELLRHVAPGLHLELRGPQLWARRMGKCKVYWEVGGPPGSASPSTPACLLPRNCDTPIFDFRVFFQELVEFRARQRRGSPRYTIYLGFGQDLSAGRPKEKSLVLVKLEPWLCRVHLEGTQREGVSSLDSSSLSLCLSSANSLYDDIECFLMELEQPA
Technique: protein-binding microarray
Form: double-stranded DNA, one strand shown
Medium: in vitro
Tested at: 2200 nM top
Notes: 60-bp whole probe
Together with: salmon DNA 0.4 mg/ml
Relative to: random background probes
Direction: higher = stronger binding
Shared flanks, not repeated: GCCTAGCAC … GTGCTAGGTCTTGATTCGCTTGACGCTGCTG
| Strand | fitted relative affinity [z-score] |
| --- | --- |
| TACGGTTTCGGTTCCGGGAC | 11.9 |
| TTAGGTTTCCTATCCCTTTA | 2.16 |
| CTGCTGGCCTGTTGCTGGAA | -0.542 |
| TTAGGTTCCGGTTACGGTTA | 2.22 |
| CCCACTTTCACTTCTCCCTT | 11.6 |
| TTAGGCCTGCTACTGCTTTA | -0.248 |

Single results of other studies
| Substance | target | test | test system | conditions | scale | quantity | result |
| --- | --- | --- | --- | --- | --- | --- | --- |
| PhoQ, residues 284 288 289 292 302 303 TLASMF | PhoP, residues 12 14 15 18 19 AWHSL (Escherichia coli, UniProt P23836) | Sort-seq, item: YFP reporter | E. coli | PhoQ-PhoP variant library, together with: 10 µM Mg2+ | relative to: high Mg2+ state, higher = stronger signaling | fold induction | 3.78 |

For quick reference, copied from above (single results of other studies):
| Substance | target | test | test system | conditions | scale | quantity | result |
| --- | --- | --- | --- | --- | --- | --- | --- |
| PhoQ, residues 284 288 289 292 302 303 TLASMF | PhoP, residues 12 14 15 18 19 AWHSL (Escherichia coli, UniProt P23836) | Sort-seq, item: YFP reporter | E. coli | PhoQ-PhoP variant library, together with: 10 µM Mg2+ | relative to: high Mg2+ state, higher = stronger signaling | fold induction | 3.78 |
